Assay results from different studies.
Each numbered part is a random draw from the data of one study; scales do not carry over between parts.
UniProt Q8IYT8, sequence (whole entry, looked up): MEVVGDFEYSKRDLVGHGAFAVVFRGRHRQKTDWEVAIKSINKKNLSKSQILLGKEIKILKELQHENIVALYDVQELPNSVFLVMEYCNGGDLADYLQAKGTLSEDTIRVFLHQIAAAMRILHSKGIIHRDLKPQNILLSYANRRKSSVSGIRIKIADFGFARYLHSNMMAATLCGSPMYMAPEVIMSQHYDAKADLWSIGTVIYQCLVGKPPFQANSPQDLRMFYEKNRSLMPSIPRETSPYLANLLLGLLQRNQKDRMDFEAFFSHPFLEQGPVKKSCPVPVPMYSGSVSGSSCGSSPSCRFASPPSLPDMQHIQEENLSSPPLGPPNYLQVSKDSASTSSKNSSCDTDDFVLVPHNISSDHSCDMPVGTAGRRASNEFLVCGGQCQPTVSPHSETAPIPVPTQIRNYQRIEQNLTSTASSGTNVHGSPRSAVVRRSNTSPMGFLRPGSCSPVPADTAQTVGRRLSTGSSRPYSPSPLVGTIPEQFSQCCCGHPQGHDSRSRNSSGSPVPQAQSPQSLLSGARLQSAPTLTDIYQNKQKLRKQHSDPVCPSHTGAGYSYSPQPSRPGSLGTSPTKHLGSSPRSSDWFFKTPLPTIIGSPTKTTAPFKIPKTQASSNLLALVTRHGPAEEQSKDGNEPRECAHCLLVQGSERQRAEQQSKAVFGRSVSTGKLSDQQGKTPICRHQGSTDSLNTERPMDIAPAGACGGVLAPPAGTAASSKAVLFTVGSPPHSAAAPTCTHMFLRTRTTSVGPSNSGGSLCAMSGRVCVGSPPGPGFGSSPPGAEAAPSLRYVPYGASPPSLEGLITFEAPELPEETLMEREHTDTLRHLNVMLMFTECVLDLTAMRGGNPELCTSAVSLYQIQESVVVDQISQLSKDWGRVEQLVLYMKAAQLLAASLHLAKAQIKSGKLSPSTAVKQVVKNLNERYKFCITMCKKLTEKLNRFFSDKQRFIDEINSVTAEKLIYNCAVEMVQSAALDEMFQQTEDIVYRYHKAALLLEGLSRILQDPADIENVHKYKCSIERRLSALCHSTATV
UniProt O14730, sequence (whole entry, looked up): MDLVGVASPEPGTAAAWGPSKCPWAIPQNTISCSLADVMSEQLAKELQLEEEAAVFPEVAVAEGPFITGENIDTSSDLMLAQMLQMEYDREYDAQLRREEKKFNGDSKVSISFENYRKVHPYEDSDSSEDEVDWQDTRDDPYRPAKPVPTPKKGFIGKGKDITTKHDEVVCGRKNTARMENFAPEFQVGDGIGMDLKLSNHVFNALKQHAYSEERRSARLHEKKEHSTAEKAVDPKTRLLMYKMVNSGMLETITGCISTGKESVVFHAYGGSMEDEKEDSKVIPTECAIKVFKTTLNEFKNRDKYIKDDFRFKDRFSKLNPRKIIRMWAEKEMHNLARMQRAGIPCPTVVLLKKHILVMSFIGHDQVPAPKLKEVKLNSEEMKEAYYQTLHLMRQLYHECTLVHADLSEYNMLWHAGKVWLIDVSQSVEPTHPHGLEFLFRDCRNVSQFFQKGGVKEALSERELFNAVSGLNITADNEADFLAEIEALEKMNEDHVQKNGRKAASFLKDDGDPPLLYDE
UniProt Q13131, sequence (whole entry, looked up): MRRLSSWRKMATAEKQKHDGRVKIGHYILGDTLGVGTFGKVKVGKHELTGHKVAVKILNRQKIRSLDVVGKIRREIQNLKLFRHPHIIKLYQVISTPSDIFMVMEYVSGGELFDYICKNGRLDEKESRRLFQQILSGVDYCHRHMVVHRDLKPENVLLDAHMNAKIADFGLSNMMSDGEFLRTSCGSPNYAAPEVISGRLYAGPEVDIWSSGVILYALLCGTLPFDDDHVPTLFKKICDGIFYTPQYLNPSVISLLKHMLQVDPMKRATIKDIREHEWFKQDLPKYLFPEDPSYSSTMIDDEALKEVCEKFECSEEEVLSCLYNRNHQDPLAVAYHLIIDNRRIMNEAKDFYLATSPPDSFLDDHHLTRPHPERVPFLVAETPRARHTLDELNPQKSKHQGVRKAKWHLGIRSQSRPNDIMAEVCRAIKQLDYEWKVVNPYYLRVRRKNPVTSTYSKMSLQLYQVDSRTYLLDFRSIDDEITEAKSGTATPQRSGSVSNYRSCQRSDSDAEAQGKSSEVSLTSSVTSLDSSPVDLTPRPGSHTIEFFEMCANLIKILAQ
UniProt P51955, sequence (whole entry, looked up): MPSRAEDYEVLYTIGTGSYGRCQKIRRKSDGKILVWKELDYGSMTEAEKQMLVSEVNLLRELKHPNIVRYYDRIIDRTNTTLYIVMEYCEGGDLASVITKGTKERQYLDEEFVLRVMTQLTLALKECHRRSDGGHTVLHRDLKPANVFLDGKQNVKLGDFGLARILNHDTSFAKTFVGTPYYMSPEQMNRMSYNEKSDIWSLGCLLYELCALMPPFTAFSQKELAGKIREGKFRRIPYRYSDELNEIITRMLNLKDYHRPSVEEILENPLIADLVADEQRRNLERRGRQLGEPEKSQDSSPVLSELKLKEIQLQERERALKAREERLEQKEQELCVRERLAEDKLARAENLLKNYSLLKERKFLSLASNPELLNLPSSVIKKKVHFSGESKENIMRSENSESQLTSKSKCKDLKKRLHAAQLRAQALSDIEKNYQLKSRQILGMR

Sample 1
Target: Sal-like protein 4, full length isoform A (SALL4, Homo sapiens, UniProt Q9UJQ4, residues 1-1053)
UniProt Q9UJQ4, sequence (whole entry, looked up): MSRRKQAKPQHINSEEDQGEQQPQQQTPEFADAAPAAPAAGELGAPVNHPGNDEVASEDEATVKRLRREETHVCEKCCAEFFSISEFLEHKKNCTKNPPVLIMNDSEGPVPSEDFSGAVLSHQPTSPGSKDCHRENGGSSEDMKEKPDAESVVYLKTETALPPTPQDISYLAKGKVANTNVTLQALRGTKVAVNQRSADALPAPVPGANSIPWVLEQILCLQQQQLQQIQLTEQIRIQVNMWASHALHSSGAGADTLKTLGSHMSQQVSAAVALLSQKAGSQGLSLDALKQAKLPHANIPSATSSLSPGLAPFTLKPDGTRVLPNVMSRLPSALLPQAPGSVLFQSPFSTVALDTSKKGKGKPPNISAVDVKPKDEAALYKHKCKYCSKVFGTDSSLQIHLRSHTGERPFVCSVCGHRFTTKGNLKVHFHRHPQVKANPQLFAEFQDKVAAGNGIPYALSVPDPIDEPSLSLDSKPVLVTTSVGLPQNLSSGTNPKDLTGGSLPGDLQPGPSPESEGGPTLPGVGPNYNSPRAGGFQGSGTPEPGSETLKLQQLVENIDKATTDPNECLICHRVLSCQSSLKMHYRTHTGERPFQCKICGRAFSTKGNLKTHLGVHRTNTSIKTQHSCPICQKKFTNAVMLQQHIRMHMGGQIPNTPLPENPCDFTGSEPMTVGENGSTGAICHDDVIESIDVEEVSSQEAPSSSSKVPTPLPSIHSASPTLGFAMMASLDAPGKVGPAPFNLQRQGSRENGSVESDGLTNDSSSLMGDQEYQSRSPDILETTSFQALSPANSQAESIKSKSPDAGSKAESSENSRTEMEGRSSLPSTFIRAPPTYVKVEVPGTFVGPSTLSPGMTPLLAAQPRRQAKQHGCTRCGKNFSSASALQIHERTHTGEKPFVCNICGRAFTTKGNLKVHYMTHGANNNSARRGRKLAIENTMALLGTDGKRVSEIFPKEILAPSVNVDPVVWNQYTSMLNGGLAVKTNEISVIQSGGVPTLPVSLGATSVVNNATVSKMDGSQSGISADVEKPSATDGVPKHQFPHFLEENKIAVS
Technique: universal PBM
Molecule type: double-stranded DNA, one strand shown
Sample: in vitro
Concentration: 600 nM
Notes: 8-mer, flanks averaged, mean of replicates
Direction: higher = stronger binding
Quantity: E-score
AGCGGCAC: -0.343
ACGACAAT: 0.0872
AGTCTTGG: -0.00148
ACACTCGT: 0.00622
ATACTGAG: 0.126
CCAGAGAA: 0.0219
TGTTGCAA: 0.152
AAGCTGGA: -0.0531

Sample 2
Target: RNA binding protein fox-1 homolog 2, RRM domain, GST-SBP tag (RBFOX2, Homo sapiens, UniProt O43251-10, residues 100-194)
Technique: RNA Bind-n-Seq
Molecule type: RNA
Sample: in vitro
Concentration: 365 nM
Notes: natural RNA segment, single round, ends assumed
Reference: no-protein control
Direction: higher = stronger binding
Quantity: RBNS enrichment (R)
Constant ends, left off below: GGGAGUUCUACAGUCCGACGAUC … UGGAAUUCUCGGGUGCCAA
Residues (chain): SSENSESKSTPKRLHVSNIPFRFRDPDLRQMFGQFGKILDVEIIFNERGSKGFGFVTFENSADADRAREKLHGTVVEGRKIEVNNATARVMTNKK
UGUUAUGCAAACAGUAAUUUUUCCCUAUGUUAUGAAGAGAGACAUAUUGGCUUGCUUUAAUUUACUUAUUUAUGAAAUUAAAGCAUGAAUAAUAUGUAUAAUUUGAAUUU: 3.02
GCCACACUGCUCAAAGGUCCCUGCGUGGGGAGGUGUCACACCAGGGGCACACCCAGGGCCACCUGGGUGUAGGAGAGCUCUGGUGGCCCCUCCGUAAACUCAGGAAGUGU: 0.469
GUGGCACACACUGACCACACAUUAGGCUGUGUCACCAUUGUGUGGUGUACCUGCUGGAAGAAUUCUAGCAUGCUACUUGGGGACAUAAUUUCAGUGGGAAAUAUGCCACU: 4.36
UACUAUUAGGUAUGUAAGCUUGGGCAAAUCGCUUAACCUUCAGGUCUAGCUUUCUCACAGAAUGAGGACACUGGACUAAAUGAUUGCCCAGUUUCCAGCUAGUCCUAGAG: 0.356
UUCUCAGAGUCUCAACACAGGAACGGAGUCUUCGGCUAUCAUGGACUAGGCUGAGGCUAGUGCUGGUGUGGACUCGUUGCCCACUGUCUUCCUGUUUAUGAUUAACUCUG: 0.552
UGAAGAAAGCCCCUGAGAGAUGCACAUGGAGCCUGGAUCACUUCAUCCUCACACCUGUUCCCUCCAGAGGGCCCGGCUCCCUGCAUCAGGCAGCAGCCGCCCAUCUCGCC: 0.337
UUCCCUGGGGACCAGUGUCAGUGGCAGAGCCAGGGACACCCAUGCACAAGGAGGCAUGCUUGCCCUUCUCCUUGGGAUGGCAGCUGGUGAGCUGAGGAGGCUGGCCUAGA: 5.46
CACACCCUGCAGGCAAAAGAAACCCCCAGCUUCCCCCCUCCCCGGGAGCCAGGUGGGAAAAGUGGGUGUGAUUUUUAGAUUUUGUAUUGUGGACUGAUUUUGCCUCACAU: 0.552

Sample 3
SMILES: O=c1nc(-c2ccccn2)sc2ccccc12
Technique: competition with immobilised ligand
Concentration: 1 µM
Quantity: remaining binding
ULK2 (Homo sapiens, UniProt Q8IYT8); binding: 100%
NEK2 (Homo sapiens, UniProt P51955); binding: 84%
RIOK3 (Homo sapiens, UniProt O14730); binding: 99%
PRKAA1 (Homo sapiens, UniProt Q13131); cell-free assay: 100%

Sample 4
Target: Serine/threonine-protein kinase ULK2 (ULK2, Homo sapiens, UniProt Q8IYT8)
Observed: enzyme activity
Action: inhibitor
Concentration: 0.5 µM
Reference: control
Quantity: remaining activity
Cc1ccc(Nc2nccc(N(C)c3ccc4c(C)n(C)nc4c3)n2)cc1S(N)(=O)=O: 102%
CO[C@H]1C[C@@H]2CC[C@@H](C)[C@@](O)(O2)C(=O)C(=O)N2CCCC[C@H]2C(=O)O[C@H]([C@H](C)C[C@@H]2CC[C@@H](O)[C@H](OC)C2)CC(=O)[C@H](C)/C=C(\C)[C@@H](O)[C@@H](OC)C(=O)[C@H](C)C[C@H](C)/C=C/C=C/C=C/1C: 120%
C#Cc1cccc(Nc2ncnc3cc(OCCOC)c(OCCOC)cc23)c1: 98.7%
COc1ccc(C(=O)Nc2sc3c(c2C(N)=O)CCCC3)cc1OC: 105%
CC(C)[C@H](CO)Nc1nc(Nc2cc(N)cc(Cl)c2)c2ncn(C(C)C)c2n1: 74.9%
O=C(CCCc1ccc(-c2ccccc2F)cc1)Nc1ccc(O)cc1: 116%
Cc1ccc(NC(=O)c2ccc(CN3CCN(C)CC3)cc2)cc1Nc1nc(-c2cccnc2)cs1: 103%
O=C1NC(=O)C(c2cn(CCCO)c3ncccc23)=C1c1cnccn1: 96.7%
COc1cc2ncnc(Nc3ccc(Oc4ccccc4)cc3)c2cc1OC: 97.8%
COc1cc2ncnc(Nc3ccc(F)c(Cl)c3)c2cc1OCCCN1CCOCC1: 104%
Oc1ccc(-c2nc(-c3ccncc3)c(-c3ccc(F)cc3)[nH]2)cc1: 97.3%
Nc1[nH]nc2nc3ccccc3nc12: 95.9%
COc1ccc(OC)c2c(=S)c3ccccc3[nH]c12: 94.7%

Excerpt of the above (sample 4):
CC(C)[C@H](CO)Nc1nc(Nc2cc(N)cc(Cl)c2)c2ncn(C(C)C)c2n1: 74.9%
O=C(CCCc1ccc(-c2ccccc2F)cc1)Nc1ccc(O)cc1: 116%
Cc1ccc(NC(=O)c2ccc(CN3CCN(C)CC3)cc2)cc1Nc1nc(-c2cccnc2)cs1: 103%
O=C1NC(=O)C(c2cn(CCCO)c3ncccc23)=C1c1cnccn1: 96.7%
